Measurements gathered from unrelated publications.
Numbered parts are unrelated; each lists some results of a single study. Substitutions count along the parent as printed.

Block 1 — method: RNA Bind-n-Seq; molecule type: RNA; medium: in vitro; tested at: 200 nM; notes: whole 134-nt RNA, ends assumed; together with: 150 mM KCl; reference: input library; direction: higher = stronger binding
Target: Fragile X messenger ribonucleoprotein 1, C-terminal low-complexity region (Fmr1, Mus musculus, UniProt P35922)
Sequence | log2 enrichment
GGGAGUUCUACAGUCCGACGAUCCCUGUGCUACACAUCGUAUGUACCGAAUCGGAAAAAAGGGAAAAAAGGGGAAAAAAGGGGAAAGUAUUAUGUUACGCCGUUCGGAUCUGCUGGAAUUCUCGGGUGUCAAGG | -0.538
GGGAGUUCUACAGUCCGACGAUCAGUCCUGUGCUACACAUCGUAUGUACCGAAUCGGGGUUUUUGGUUUUUGGUUUUUGGGAAAGUAUUAUGUUACGCCGUUCGGAUCUGCACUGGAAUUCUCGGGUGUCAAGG | -0.58
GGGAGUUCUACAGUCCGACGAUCGCAGGAAGUAAAAACAAAUGGAAAUGCUUCGGAUAGUGGCAGGGGUGGGGGUUGCUAAGGAAAGGGUGGGAUGGGCGUGGGUAAAGAGUUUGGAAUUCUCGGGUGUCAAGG | -0.0351
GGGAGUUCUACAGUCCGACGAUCCAAGUCCUGUGCUACACAUCGUAUGUACCGAAUCGGAAAGGUUUGGAAAAAAAGGAAAGUAUUAUGUUACGCCGUUCGGAUCUGCACUUCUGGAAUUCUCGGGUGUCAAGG | -0.841
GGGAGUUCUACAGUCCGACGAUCAGUCCUGUGCUACACAUCGUAUGUACCGAAUCAAAUUUUUAAACCCAAAUUUUUAAAAAAGUAUUAUGUUACGCCGUUCGGAUCUGCACUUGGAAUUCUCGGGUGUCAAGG | -0.105
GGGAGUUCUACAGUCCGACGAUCCACAGACAACACGCACCCACACAGACACAGAGGGAAGGGGUUGGGAUGGGCACAGGGUGCACAGCAGGGCGGGGUAGGACCCCAGCCCCUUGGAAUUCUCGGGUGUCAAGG | 1.26
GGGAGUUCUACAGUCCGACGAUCAAGUCCUGUGCUACACAUCGUAUGUACCGAAUCGGUUUUUUUGGUUUUUGGUUUGGAAAGUAUUAUGUUACGCCGUUCGGAUCUGCACUUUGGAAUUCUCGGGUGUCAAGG | -0.835

Block 2 — method: DHFR PCA, deep sequencing; medium: yeast; together with: (+)-ABA 200 µM; reference: wild-type fitted maximum; direction: higher = stronger binding
Target: ABI1, truncated, D143A, DHFR fusion (Arabidopsis thaliana)
Notes: methotrexate growth selection, single substitutions
Starting sequence: PYL1, truncated, DHFR fusion (Arabidopsis thaliana); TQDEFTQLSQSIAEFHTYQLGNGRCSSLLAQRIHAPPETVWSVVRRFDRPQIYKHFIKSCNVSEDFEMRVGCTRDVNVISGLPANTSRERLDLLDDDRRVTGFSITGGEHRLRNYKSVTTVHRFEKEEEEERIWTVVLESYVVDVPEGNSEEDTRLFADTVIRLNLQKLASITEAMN; partner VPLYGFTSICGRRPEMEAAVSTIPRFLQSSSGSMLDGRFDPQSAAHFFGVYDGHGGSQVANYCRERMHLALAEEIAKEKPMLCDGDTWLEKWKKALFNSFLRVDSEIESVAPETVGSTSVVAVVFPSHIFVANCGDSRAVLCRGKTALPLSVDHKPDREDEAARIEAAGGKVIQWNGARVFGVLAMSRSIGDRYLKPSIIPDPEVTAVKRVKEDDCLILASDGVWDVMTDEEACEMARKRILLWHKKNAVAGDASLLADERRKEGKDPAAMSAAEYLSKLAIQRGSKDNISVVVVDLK
Change | relative binding score [%]
D96I | 28.2
Q7Y | 97.5
V43G | 6.62
H55E | 98.2
A30M | 102
S59D | 101
I172K | 77.7
I12T | 73
S42W | 74.3

Block 3 — method: universal PBM; molecule type: double-stranded DNA, one strand shown; medium: in vitro; tested at: not given; direction: higher = stronger binding
Target: Sal-like protein 4, full length isoform B (SALL4, Homo sapiens, UniProt Q9UJQ4-2, residues 1-616)
Notes: 8-mer, flanks averaged, mean of replicates
Sequence | E-score
ATAGATTG | 0.219
GCACGAGC | -0.29
TGCGATAA | 0.244
AAGCGCCG | -0.219
ACTGCGTC | -0.0314
CCGTTGAG | -0.0863
CCTCTGGC | -0.136

Single results of other studies
Molecule | organism | test | test system | conditions | scale | endpoint | value
KLLPRKLQFFCDP | Saccharomyces cerevisiae | binding, competitive growth deep sequencing | peptide, cyclin E1-Cln2 fusion strain | concentration not given, Cln2 score subtracted | direction not given | growth enrichment score | 0.793

Excerpt of the above (block 3):
Sequence | E-score
ATAGATTG | 0.219
